Results gathered from unrelated publications.
Every numbered part comes from another study and shows a few of its results, in no order.

Block 1
Target: Hepatocyte nuclear factor 3-beta, forkhead domain (FOXA2, Homo sapiens, UniProt Q9Y261, residues 142-269)
Technique: protein-binding microarray
Form: double-stranded DNA, one strand shown
Medium: in vitro
Tested at: not given
Setting: k-mer, scored over probes, only values ≥0.25
Direction: higher = stronger binding
Construct (chain): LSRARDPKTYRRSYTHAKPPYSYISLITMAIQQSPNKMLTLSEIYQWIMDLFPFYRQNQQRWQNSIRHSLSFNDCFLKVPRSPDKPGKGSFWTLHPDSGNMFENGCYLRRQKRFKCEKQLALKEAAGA
| Strand | E-score |
| --- | --- |
| ATACAGCA | 0.252 |
| GTCAACAC | 0.352 |
| ATCAACTA | 0.255 |
| CTACCACA | 0.253 |
| GATCAACA | 0.317 |
| ACAATCCA | 0.284 |
| GTTGTTGA | 0.303 |
| CTATTATA | 0.333 |
| GGGTACTA | 0.253 |
| GATTGTAA | 0.261 |
| ATACATTG | 0.306 |
| TGGTATAA | 0.364 |
| CATATCAC | 0.256 |
| CTTCAATA | 0.287 |
| GGTAACAA | 0.317 |
| ATTACACA | 0.253 |
| AAACATAA | 0.259 |
| ACACTAAC | 0.254 |
| CTATACCA | 0.27 |
| ATCATTAC | 0.258 |
| CAAATAGA | 0.34 |
| ATAGGAAA | 0.271 |
| TACAAATA | 0.404 |
| CAGTAATA | 0.34 |
| AATGGTCA | 0.278 |

Block 2
Target: Prothrombin, mature alpha-thrombin (F2, Homo sapiens, UniProt P00734)
Technique: aptamer microarray, sandwich
Form: DNA with 2'F-ANA
Medium: in vitro
Tested at: 200 nM
Setting: whole 15-mer aptamer, many near background
Together with: Cy3 exosite-II aptamer, 400 nM
Direction: higher = stronger binding
Strand: GGTTGGTGTGGTTGG
| Modification | mean fluorescence intensity |
| --- | --- |
| 2'F-ANA at 1 7 9 12 | 390 a.u. |
| 2'F-ANA at 2 5 6 8 10 12 | 54.8 a.u. |
| 2'F-ANA at 2 3 6 7 8 10 12 14 | 296 a.u. |
| 2'F-ANA at 1 3 4 6 8 11 12 13 15 | 247 a.u. |
| 2'F-ANA at 3 8 11 | 1130 a.u. |
| 2'F-ANA at 1 7 10 12 13 15 | 73.1 a.u. |
| 2'F-ANA at 1 2 3 5 8 9 10 11 14 | 49.5 a.u. |
| 2'F-ANA at 2 3 4 5 9 13 15 | 84.3 a.u. |
| 2'F-ANA at 2 3 5 6 8 10 12 13 14 | 86 a.u. |
| 2'F-ANA at 1 2 3 4 5 6 8 11 12 13 | 86.5 a.u. |
| 2'F-ANA at 7 8 10 11 13 14 | 100 a.u. |
| 2'F-ANA at 1 2 3 4 7 12 13 | 275 a.u. |
| 2'F-ANA at 2 4 5 7 8 12 13 14 15 | 46.2 a.u. |
| 2'F-ANA at 3 6 7 8 9 | 1110 a.u. |
| 2'F-ANA at 3 4 6 10 11 12 13 14 15 | 165 a.u. |
| 2'F-ANA at 2 3 4 6 10 11 15 | 186 a.u. |
| 2'F-ANA at 1 3 4 7 8 9 11 12 13 14 | 79.8 a.u. |
| 2'F-ANA at 1 2 5 6 7 9 12 14 | 52 a.u. |
| 2'F-ANA at 1 7 12 13 14 15 | 76.1 a.u. |
| 2'F-ANA at 5 7 10 11 13 15 | 47.9 a.u. |
| 2'F-ANA at 3 4 5 6 7 8 12 13 | 160 a.u. |
| 2'F-ANA at 1 6 7 8 9 11 12 15 | 290 a.u. |
| 2'F-ANA at 2 3 4 5 8 10 13 | 56.7 a.u. |
| 2'F-ANA at 2 4 6 8 10 11 12 13 14 | 96.4 a.u. |
| 2'F-ANA at 1 2 3 7 9 13 14 15 | 69.7 a.u. |

Block 3
Target: RNA binding protein fox-1 homolog 2, RRM domain, GST-SBP tag (RBFOX2, Homo sapiens, UniProt O43251-10, residues 100-194)
Technique: RNA Bind-n-Seq
Form: RNA
Medium: in vitro
Tested at: 365 nM
Setting: natural RNA segment, single round, ends assumed
Baseline: no-protein control
Direction: higher = stronger binding
Constant ends, left off below: GGGAGUUCUACAGUCCGACGAUC … UGGAAUUCUCGGGUGCCAA
Residues (chain): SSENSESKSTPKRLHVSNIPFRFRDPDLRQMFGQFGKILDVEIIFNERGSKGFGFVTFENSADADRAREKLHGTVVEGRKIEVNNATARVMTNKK
| Strand | RBNS enrichment (R) |
| --- | --- |
| GCAGCCGUGUAGGGGGCCUCCCAUCUGCUAAGCGUUUUUCCGUUGAGCCGCUCCAAAAACACUAAGCUGGGGACGCCAGGUGCCCCCCCACCCCGGCUCCCUGGCCCUAU | 0.363 |
| GCCAGUGGUUCCGGCUGAGCUCUCCUGGCUGGUCCCCCAGGACCACCAGCACUGCCGUGGGUCUCCUCACAUGGUCAAACGGAACACGGGGGGUUAGGCCUGUGUGCCCC | 0.196 |
| GUCCCCAUCUGUCCUCUUGAUGUGAGAGAGACUCUGAGACUUCUUCCAUCGCAAUGACCUGUAUUAAACACAAGCCCCCCAAGCAAAAGAAGAGGUUGAGUUUGCUGCCA | 0.728 |
| UUCACCUACUCCACCUCUGCGCCUGGCCCAGCCCUUUCCCCGUCGGUGCCCCUGCACUACCUGCCCCACGAUCCGCUGCACCAGGAGCUGUCCUUUGGUGUGCCAUAUUC | 0.941 |
| ACCUUCCUCACUUUCUCUUGUCCCGGCUGCCCCUGGGGGCCAGAGAGACCCUUGCCUUCCUUCUGCCCAUCUUCUGAGUUGUAAAGGAACAGCCCUGCGCAGUGGGGCAG | 1.03 |
| AUUUAUUAUUUAUGUACAAUUUGGUGUUUGUAUUAGCUCUACUACAGUAAAUGACUGUAAAAUUGUCGUGGCUUACAACAACGUAUCUUUUUCGCUUAUAAUACAUUUUG | 0.629 |
| UUGGCCAACAAUCCUUUCUGCCCACUUCCCCUUCCCCAAUUACUAUUCCCUUUGACUUCAGCUGCCUGAAACAGCCAUGUCCAAGUUCUUCACCUCUAUCCAAAGAACUU | 0.691 |
| CAUUUUUGUACACCCACAGUGGUACCUUUUACAGUCAGGUUUGGAUACUUUGCAGCUCAUCCAAAGAGACAUAACUAAACCCUAAACUCUUUUUUUGUUGUUGUUGUUGU | 0.431 |
| CCCAGUAGUCCCUCCAUGACAGAAAACACUCCCAUGAGUCUCGAGGGAAAGCCAAGAAUAAAUGUCACUCCAGAACACAUUUUUUUUUAGCAAUAAAAUGGUGUCAAAUG | 0.47 |
| CUAGUCCUCUUAGAAUUUCUUGCGCUUUGAUUUUUUUAGGGCUUGUGCCCUGUUUCACUUAUAGGGUCUAGAAUGCUUGUGUUGAGUAAAAAGGAGAUGCCCAAUAUUCA | 2.77 |
| GAAAUAUAGGGGAGGUGGACUGUAAGGGAUAUAUAACCAGUGUGAAGAACUGCUUCAUAAAAUAUGUAUUAAGUAUUGUAUUUCCCUCUUAGCAGUUGAAUCCAAACCAG | 0.424 |
| AUCCCAAUACUGCAGGAGGGGUCUUCUCACAAAGCUCUGAGGGCUGGUCUUGACUAAGCAAUAAGAGCCUCAGAGUUGAUUGAAUUUUAAGGUCCCUUUCUGGCUUCUUG | 0.446 |

Block 4
Target: RING finger protein unkempt homolog, zinc fingers 1-6, GST-SBP tag (UNK, Homo sapiens, UniProt Q9C0B0, residues 30-357)
Technique: RNA Bind-n-Seq
Form: RNA
Medium: in vitro
Tested at: not given
Setting: RNA with constant flanks, human and mouse sites, ends assumed
Baseline: input RNA pool
Direction: higher = stronger binding
Constant ends, left off below: GGGAGUUCUACAGUCCGACGAUC … CAACAGAGGAUUGAGCAUCA
Target sequence (chain): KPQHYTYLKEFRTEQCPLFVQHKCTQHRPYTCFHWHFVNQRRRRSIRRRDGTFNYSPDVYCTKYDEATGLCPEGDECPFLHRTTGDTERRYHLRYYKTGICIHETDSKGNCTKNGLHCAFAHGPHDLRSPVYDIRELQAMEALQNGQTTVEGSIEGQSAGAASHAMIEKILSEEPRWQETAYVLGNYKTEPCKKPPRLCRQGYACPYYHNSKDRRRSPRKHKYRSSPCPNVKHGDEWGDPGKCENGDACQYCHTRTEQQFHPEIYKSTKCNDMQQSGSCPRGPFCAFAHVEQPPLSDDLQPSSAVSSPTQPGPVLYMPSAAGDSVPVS
| Strand | bound/input enrichment [ratio] |
| --- | --- |
| CACAGAGCAGCACCUACCCCCUCCUCCUUUCCACACCUGCAAACUCUUUUACUUGGGCUGAAUAUUUAGUGUAAUUACAUCUCAGCUUUGAGGGCUCCUGUGGCAAAUUCCCGGAUUAAA | 1.13 |
| AAAGGUUUCCUGCUACAGGAGGGGAGAAAGCUGUGCAGUCUCUUGGGAAAGGACUUUUCCCUUAGAGUGGGCCUCGGGGCUGCACUCCAGAGUUGUGGCAAUCUGCCUAAGUUUCCAAAC | 0.145 |
| AACAGCUCUCUCCUUCCUCGUUACUGCAAAUUGAUUGUUUCCCUUUCCUGGUACCAUAAUCUUAGAGGCAAACUUUGAGACAGGUGUUUUGAGGCUCUUCCUGUACUCUUAGGAUAUAUG | 1.38 |
| ACUUUAAGUUGUUGGAAUUCCUUUAAGAAGAGUAUAAAUUAUUUUUUUUAUUUAAAAGGAUAGUUGAUUCCUGGGGUACUUUGUUUUGAAAUUAGAAGUUGUUAAGGACACUUUUGUUGU | 4.96 |
| UGCUCCUGUUCACAGUCCCACUGCUGCUCCAGAUACCUGUGCAUGGGAGCCCUGUCUUUGUGCCUACCCUGCUUGCUCUGCUACCCUCCCGCCAAGGGCUGCCUGAAGCUGUGCAGGGGC | 0.147 |
| GCCACAGAUCGGAUCUGAUCUCUUUGUGGAUUACAUUUUCAGUAAAAUGUAUGGAUCUAUCUUUUCCUUGUUCUUAUAUCUAGAUCAUGAGACUUGACUGAGGCUGUUUCCUUAUCCUCC | 0.226 |
| GUCAUGCCGGGGAUAGUGGAGCUGCCAACUCUGGAAGAGCUGAAAGUGGAGGAGGUGAAAGUCAGCUCAGCUGUGCUUAAAGCUGCCGCCCAUCACUAUGGGGCUCAGUGCGAUAAAACC | 0.0852 |
| UUAUGGUGCACUUUUUCGCUAUUUAAGUUGGAUAUUUCUCUACAUUCCUGAAACAAUUUUUAGGUUUUUUUUGUACUAGAAAAUGCAGGCAGUGUUUUCACAAAAGUAAAUGUACAGUGA | 1.2 |
| GCACUUGGCAAUGUAAUAAGUGCCUUGGGAGACAAGAGCAAGAGGGCCACACAUGUCCCCUAUAGAGAUUCCAAGCUAACAAGACUACUACAGGAUUCCCUCGGGGGUAAUAGCCAAACA | 0.261 |
| AGGGCCGCUCCUUCACGCCGGAGACAGGCGGGCCGCCGGUUGCGCUACCUGCCUACUGGUAGCUUUCCCUUCCUCCUCUUGCUGCUGCUGCUCUGCAUCCAGCUCGGGGGCGGACAGAAG | 0.0975 |
| GAGUUUAGUUAACUUAUAGUCAGCACAUAGUAGUAAGUAUGUUUAUCCCUGUGUUCUCUAACUAGGAAGUCUGGCUUUAAAGGUUUUUUAAAGUUUCCUCUAAUAUUUUGAUCAAAGGUC | 3.29 |

Repeated from above (block 3):
| Strand | RBNS enrichment (R) |
| --- | --- |
| GCCAGUGGUUCCGGCUGAGCUCUCCUGGCUGGUCCCCCAGGACCACCAGCACUGCCGUGGGUCUCCUCACAUGGUCAAACGGAACACGGGGGGUUAGGCCUGUGUGCCCC | 0.196 |
| GUCCCCAUCUGUCCUCUUGAUGUGAGAGAGACUCUGAGACUUCUUCCAUCGCAAUGACCUGUAUUAAACACAAGCCCCCCAAGCAAAAGAAGAGGUUGAGUUUGCUGCCA | 0.728 |
| UUCACCUACUCCACCUCUGCGCCUGGCCCAGCCCUUUCCCCGUCGGUGCCCCUGCACUACCUGCCCCACGAUCCGCUGCACCAGGAGCUGUCCUUUGGUGUGCCAUAUUC | 0.941 |
| ACCUUCCUCACUUUCUCUUGUCCCGGCUGCCCCUGGGGGCCAGAGAGACCCUUGCCUUCCUUCUGCCCAUCUUCUGAGUUGUAAAGGAACAGCCCUGCGCAGUGGGGCAG | 1.03 |
| AUUUAUUAUUUAUGUACAAUUUGGUGUUUGUAUUAGCUCUACUACAGUAAAUGACUGUAAAAUUGUCGUGGCUUACAACAACGUAUCUUUUUCGCUUAUAAUACAUUUUG | 0.629 |
| UUGGCCAACAAUCCUUUCUGCCCACUUCCCCUUCCCCAAUUACUAUUCCCUUUGACUUCAGCUGCCUGAAACAGCCAUGUCCAAGUUCUUCACCUCUAUCCAAAGAACUU | 0.691 |
| CAUUUUUGUACACCCACAGUGGUACCUUUUACAGUCAGGUUUGGAUACUUUGCAGCUCAUCCAAAGAGACAUAACUAAACCCUAAACUCUUUUUUUGUUGUUGUUGUUGU | 0.431 |
| CCCAGUAGUCCCUCCAUGACAGAAAACACUCCCAUGAGUCUCGAGGGAAAGCCAAGAAUAAAUGUCACUCCAGAACACAUUUUUUUUUAGCAAUAAAAUGGUGUCAAAUG | 0.47 |
| CUAGUCCUCUUAGAAUUUCUUGCGCUUUGAUUUUUUUAGGGCUUGUGCCCUGUUUCACUUAUAGGGUCUAGAAUGCUUGUGUUGAGUAAAAAGGAGAUGCCCAAUAUUCA | 2.77 |
| GAAAUAUAGGGGAGGUGGACUGUAAGGGAUAUAUAACCAGUGUGAAGAACUGCUUCAUAAAAUAUGUAUUAAGUAUUGUAUUUCCCUCUUAGCAGUUGAAUCCAAACCAG | 0.424 |
